# Results collected from several papers.
# Numbered parts are unrelated; each lists some results of a single study.

# Set 1 — read-out: ligand displacement; technique: radioligand; concentration: 10 µM
# Target: 5-hydroxytryptamine receptor 1D (HTR1D, Homo sapiens, UniProt P28221)
# UniProt P28221, sequence (whole entry, looked up): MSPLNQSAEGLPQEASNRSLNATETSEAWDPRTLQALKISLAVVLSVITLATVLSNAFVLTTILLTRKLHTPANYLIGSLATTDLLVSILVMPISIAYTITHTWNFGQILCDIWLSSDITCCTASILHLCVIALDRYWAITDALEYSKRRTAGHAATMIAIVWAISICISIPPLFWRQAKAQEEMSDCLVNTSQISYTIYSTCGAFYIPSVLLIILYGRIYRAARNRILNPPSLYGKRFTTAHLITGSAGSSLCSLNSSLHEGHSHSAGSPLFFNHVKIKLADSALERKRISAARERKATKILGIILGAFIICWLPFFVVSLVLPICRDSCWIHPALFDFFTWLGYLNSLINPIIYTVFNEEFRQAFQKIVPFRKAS
Structure (SMILES),inhibition
CC1=C(C#N)C(c2ccc3c(c2)c(NC(=O)c2ccccc2C)nn3C)C(C#N)=C(C)N1,2.45%
C[C@@H]1CN(c2cc(-c3n[nH]c4ccc(OC5(C)CC5)cc34)ncn2)C[C@H](C)O1,-7.94%
CNC(=O)Nc1ccc2c(c1)CC[C@]21OC(=O)N(CC(=O)N(Cc2ccc(F)cc2)[C@@H](C)C(F)(F)F)C1=O,18%
C[C@H](c1cccc(C#N)c1)n1cc(Cl)cc(C(N)=O)c1=N,9.16%
CSc1cccnc1N1CCN(Cc2nc3ccccc3[nH]2)CC1,30.2%
O=C1CCc2cc(Nc3cc(OC4CCOCC4)c([N+](=O)[O-])cc3Cl)ccc2N1,18.6%
COc1cc(-c2cn(C3CCc4c(F)cccc4N(CC(F)(F)F)C3=O)nn2)ccc1-n1cnc(C)c1 (centres unmarked),-13.5%
CC(=O)N1CCC(c2ccc(C(=O)NC3=NCCN3)cc2C(F)(F)F)CC1,9.64%
Cc1c(NC(=O)c2cc(C(N)=O)nc3cc(F)ccc23)c(C(F)(F)F)nn1Cc1ccc(C#N)cc1,6.11%
Cn1cncc1[C@@](O)(COc1ccc(C#N)cc1-c1ccc(OC(F)(F)F)cc1)c1ccc(C#N)cc1,6.65%
CN(c1ccnc(CNc2nc(Nc3ccc4c(c3)CC(=O)N4)ncc2C(F)(F)F)n1)S(C)(=O)=O,0.19%
CS(=O)(=O)NCC[C@H](NC(=O)c1cncc2c1cnn2-c1ccc(F)cc1)c1ccnc(S(C)(=O)=O)c1,38.9%
COc1ccc2c(O[C@@H]3C[C@H]4C(=O)N[C@]5(C(=O)O)CC5/C=C\CCCCC[C@H](NC(=O)OC5CCCC5)C(=O)N4C3)cc(-c3csc(NC(=O)C(C)C)n3)nc2c1C (some centres unmarked),32.5%
C[C@@H](NC(=O)Nc1cc2[nH]ncc2c(CO)n1)c1ccccc1,1.59%
CCC(=O)N[C@H]1CC[C@@H](C(=O)N(C)c2ccc(-c3nc4ccccc4o3)cc2)C1,6.85%
CN1CCN(c2cnc3c(C4CCN(C(=O)c5ccc(OC(F)(F)F)cc5N)CC4)ncnc3c2)CC1,16%
Cn1nc(C(F)(F)F)cc1-c1cnc(N2CCc3cc(S(=O)(=O)Nc4c(F)cc(Cl)cc4F)cc(N4CCCC4=O)c32)nc1,55.3%
C[C@H](c1ccc(F)cc1)N(Cc1cccc(C(=O)O)c1)C(=O)c1cnc2ccccc2c1,-1.68%

# Set 2 — mode: inhibitor; concentration: 10 µM; relative to: control
# Target: Diamine acetyltransferase 1 (Homo sapiens, UniProt P21673)
# Construct (P21673 1-171): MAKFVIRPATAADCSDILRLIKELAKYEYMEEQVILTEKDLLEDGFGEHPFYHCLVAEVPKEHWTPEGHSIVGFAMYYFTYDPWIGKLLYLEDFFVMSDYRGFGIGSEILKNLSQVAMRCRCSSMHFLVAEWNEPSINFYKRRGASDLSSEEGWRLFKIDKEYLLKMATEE
SMILES,remaining activity [%]
CC1(C)CC[C@]2(C)CC[C@]3(C)C(=CC[C@@H]4[C@@]5(C)CC[C@H](O)C(C)(C)[C@@H]5CC[C@]43C)[C@@H]2C1,107
O=C(O)c1ccco1,87.3
COc1cc2c(c(OC)c1OC)-c1ccc(OC)c(=O)cc1[C@@H](NC(C)=O)CC2,85.8
COc1c(O)cc2oc(-c3ccccc3)cc(=O)c2c1O,96.7
CC1(C)[C@@H]2CC[C@@]1(C)[C@@H](O)C2,98.4
COc1ccc([C@@H]2CC(=O)c3c(O)cc(O)cc3O2)cc1O,100
C[C@@H]1O[C@@H](O[C@H]2[C@H](O[C@H]3[C@H](O[C@H]4CC[C@@]5(C)[C@@H](CC[C@]6(C)[C@@H]5CC=C5[C@@H]7CC(C)(C)C[C@@H](O)[C@]7(C)CC[C@]56C)[C@@]4(C)CO)O[C@H](C(=O)O)[C@@H](O)[C@@H]3O)O[C@H](CO)[C@H](O)[C@@H]2O)[C@H](O)[C@H](O)[C@H]1O,110
CCCCCCCCCCCCCCCCCCCCCCCCCCCC(=O)O,89.4
CC(C)=CCc1c(O)cc(O)c2c(=O)c(-c3ccc(O)cc3)coc12,103
C=C1C[C@@]2(O)O[C@@]3(C[C@H]2C(C)C)[C@@H](C)CC[C@@H]13,91.8
CCCCCCCCCCCCCCCCCCCCCCC,75.6
C=CC(=C)CCC=C(C)C,102
CCCCCCCC/C=C\CCCCCCCC(=O)O,90.9
COc1cc(/C=C/C(=O)CC(=O)/C=C/c2ccc(O)cc2)ccc1O,96.4
OC[C@H]1O[C@@H](O[C@@H]2OC=C[C@H]3[C@H](O)[C@@H]4O[C@]4(CO)[C@@H]23)[C@H](O)[C@@H](O)[C@@H]1O,94.3

# Set 3 — organism: Sarcocystis neurona; read-out: parasite growth; concentration: 10 µM; time: 96 h; setting: second screen; relative to: untreated
SMILES,log2 fold change
COC1=C(OC)C(=O)C(CCCCCCCCCCO)=C(C)C1=O,0.3
CN(C)CCC=C1c2ccccc2COc2ccccc21,0.28
CCC(=O)NS(=O)(=O)c1ccc(-c2c(-c3ccccc3)noc2C)cc1,0.18
O=C1CCC(N2C(=O)c3ccccc3C2=O)C(=O)N1 (centres unmarked),0.21
CCCSc1ccc2nc(NC(=O)OC)[nH]c2c1,2.01
Cc1onc(-c2c(Cl)cccc2Cl)c1C(=O)N[C@@H]1C(=O)N2[C@@H]1SC(C)(C)[C@@H]2C(=O)O,0.39
COc1ccc(-c2cc(=O)c3c(OC)c(OC)c(OC)c(OC)c3o2)cc1OC,-0.0254
CC(=O)OCC[N+](C)(C)C,0.19
C[C@@H]1CN(CCCn2c3ccccc3c3ccccc32)C[C@H](C)N1,-0.0036
Cn1cc[nH]c1=S,0.22
c1ccc2c(CC3=NCCN3)cccc2c1,0.0154
Cc1nc2ccc(CN(C)c3ccc(C(=O)N[C@@H](CCC(=O)O)C(=O)O)s3)cc2c(=O)[nH]1,0.52
CC(C)(C)NC[C@H](O)COc1nsnc1N1CCOCC1,0.5
O=C(C1CCCCC1)N1CC(=O)N2CCc3ccccc3C2C1 (centres unmarked),0.36
Nc1nc(=O)c2nc(CNc3ccc(C(=O)N[C@@H](CCC(=O)O)C(=O)O)cc3)cnc2[nH]1,0.1
CO[C@H]1/C=C/O[C@@]2(C)Oc3c(C)c(O)c4c(O)c(c(/C=N/N5CCN(C)CC5)c(O)c4c3C2=O)NC(=O)/C(C)=C\C=C\[C@H](C)[C@H](O)[C@@H](C)[C@@H](O)[C@@H](C)[C@H](OC(C)=O)[C@@H]1C,0.59
CCN(CC)CC(=O)Nc1c(C)cccc1C,0.6
CCCC(=O)Nc1ccc(OCC(O)CNC(C)C)c(C(C)=O)c1 (centres unmarked),0.57
N[C@@H](C(=O)N[C@@H]1C(=O)N2C(C(=O)O)=C(CSc3c[nH]nn3)CS[C@H]12)c1ccc(O)cc1,0.33

# Set 4 — read-out: enzyme activity; mode: inhibitor; concentration: 0.5 µM; relative to: control
# Target: Tyrosine-protein kinase Fes/Fps (FES, Homo sapiens, UniProt P07332)
# UniProt P07332, sequence (whole entry, looked up): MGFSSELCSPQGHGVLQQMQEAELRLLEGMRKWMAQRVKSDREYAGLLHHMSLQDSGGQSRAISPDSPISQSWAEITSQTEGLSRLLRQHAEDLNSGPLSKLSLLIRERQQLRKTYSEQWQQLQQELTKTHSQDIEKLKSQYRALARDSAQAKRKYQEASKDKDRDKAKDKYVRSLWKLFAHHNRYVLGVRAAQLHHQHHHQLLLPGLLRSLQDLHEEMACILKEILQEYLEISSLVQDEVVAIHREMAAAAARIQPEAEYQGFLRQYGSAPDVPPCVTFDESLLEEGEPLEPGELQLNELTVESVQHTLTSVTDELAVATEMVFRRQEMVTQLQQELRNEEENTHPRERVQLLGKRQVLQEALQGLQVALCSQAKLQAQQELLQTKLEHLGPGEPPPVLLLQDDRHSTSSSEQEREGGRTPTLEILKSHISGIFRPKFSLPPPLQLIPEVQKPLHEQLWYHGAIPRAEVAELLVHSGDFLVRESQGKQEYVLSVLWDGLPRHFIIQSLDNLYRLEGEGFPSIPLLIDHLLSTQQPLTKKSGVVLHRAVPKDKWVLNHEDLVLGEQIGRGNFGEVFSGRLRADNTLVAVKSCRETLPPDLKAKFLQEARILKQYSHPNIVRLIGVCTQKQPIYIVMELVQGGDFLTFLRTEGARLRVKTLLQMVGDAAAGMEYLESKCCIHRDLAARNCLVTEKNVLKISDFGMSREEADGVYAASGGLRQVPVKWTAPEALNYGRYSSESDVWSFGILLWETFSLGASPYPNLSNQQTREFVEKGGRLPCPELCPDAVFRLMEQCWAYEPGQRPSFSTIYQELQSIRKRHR
Structure (SMILES),remaining activity [%]
CN1CCN(c2ccc3nc(-c4c(N)c5c(F)cccc5[nH]c4=O)[nH]c3c2)CC1,91.9
CCCNC(=O)Nc1ccc(Oc2ncnc3cc(OC)c(OC)cc23)cc1Cl,96
Oc1cccc(-c2nc(N3CCOCC3)c3oc4ncccc4c3n2)c1,98.8
COc1ccc2c(c1)c(C1=C(c3c[nH]c4ccccc34)C(=O)NC1=O)cn2CCCN(C)C,120
O=c1cc(N2CCOCC2)oc2c(-c3ccccc3)cccc12,96.6
O=C1Cc2c([nH]c3ccc(Br)cc23)-c2ccccc2N1,87.8
COc1cccc(-c2cc(=O)c3ccccc3o2)c1N,94.3
c1ccc(-c2n[nH]c3c2oc2ccccc23)cc1,114
O=C1Nc2ccc(Br)cc2/C1=C/c1cc2c([nH]1)CCCC2,83.8
O=Nc1c(-c2c(O)[nH]c3cc(Br)ccc23)[nH]c2ccccc12,96
CN(C)S(=O)(=O)c1ccc2c(c1)/C(=C/c1cc3c([nH]1)CCCC3)C(=O)N2,76.9
O=C(c1cc2cc(O)ccc2[nH]1)c1cc2cc(O)ccc2[nH]1,95.3
O=C1NC(=O)c2c1c1c3ccccc3[nH]c1c1[nH]c3cc(Br)ccc3c21,88.1
O=C1NC(=O)c2c1c1c3ccccc3[nH]c1n1cncc21,117
O=C1Nc2ccccc2/C1=C\c1c(Cl)[nH]c2ccccc12,96.6
N#Cc1cnc2cnc(NCc3cccnc3)cc2c1Nc1ccc(F)c(Cl)c1,108
c1ccc2c(-c3ccncc3)c[nH]c2c1,105
Cc1ccc(S(=O)(=O)/C=C/C#N)cc1,100
CCCCc1c(-c2ccc(OC)cc2)[nH]c2nccnc12,66

# Excerpt of the above (set 4):
Structure (SMILES),remaining activity [%]
CN1CCN(c2ccc3nc(-c4c(N)c5c(F)cccc5[nH]c4=O)[nH]c3c2)CC1,91.9
CCCNC(=O)Nc1ccc(Oc2ncnc3cc(OC)c(OC)cc23)cc1Cl,96
Oc1cccc(-c2nc(N3CCOCC3)c3oc4ncccc4c3n2)c1,98.8
COc1ccc2c(c1)c(C1=C(c3c[nH]c4ccccc34)C(=O)NC1=O)cn2CCCN(C)C,120
O=c1cc(N2CCOCC2)oc2c(-c3ccccc3)cccc12,96.6
O=C1Cc2c([nH]c3ccc(Br)cc23)-c2ccccc2N1,87.8
COc1cccc(-c2cc(=O)c3ccccc3o2)c1N,94.3
c1ccc(-c2n[nH]c3c2oc2ccccc23)cc1,114
O=C1Nc2ccc(Br)cc2/C1=C/c1cc2c([nH]1)CCCC2,83.8
O=Nc1c(-c2c(O)[nH]c3cc(Br)ccc23)[nH]c2ccccc12,96
CN(C)S(=O)(=O)c1ccc2c(c1)/C(=C/c1cc3c([nH]1)CCCC3)C(=O)N2,76.9
